Results collected from several papers.
Each line is one published result; not all experiments were run side by side. Several values in a cell are separate wells, animals, samples, runs or records.
Target: Tyrosine-protein kinase ZAP-70 (ZAP70, Homo sapiens, UniProt P43403)
Residues used in one study (P43403 1-619): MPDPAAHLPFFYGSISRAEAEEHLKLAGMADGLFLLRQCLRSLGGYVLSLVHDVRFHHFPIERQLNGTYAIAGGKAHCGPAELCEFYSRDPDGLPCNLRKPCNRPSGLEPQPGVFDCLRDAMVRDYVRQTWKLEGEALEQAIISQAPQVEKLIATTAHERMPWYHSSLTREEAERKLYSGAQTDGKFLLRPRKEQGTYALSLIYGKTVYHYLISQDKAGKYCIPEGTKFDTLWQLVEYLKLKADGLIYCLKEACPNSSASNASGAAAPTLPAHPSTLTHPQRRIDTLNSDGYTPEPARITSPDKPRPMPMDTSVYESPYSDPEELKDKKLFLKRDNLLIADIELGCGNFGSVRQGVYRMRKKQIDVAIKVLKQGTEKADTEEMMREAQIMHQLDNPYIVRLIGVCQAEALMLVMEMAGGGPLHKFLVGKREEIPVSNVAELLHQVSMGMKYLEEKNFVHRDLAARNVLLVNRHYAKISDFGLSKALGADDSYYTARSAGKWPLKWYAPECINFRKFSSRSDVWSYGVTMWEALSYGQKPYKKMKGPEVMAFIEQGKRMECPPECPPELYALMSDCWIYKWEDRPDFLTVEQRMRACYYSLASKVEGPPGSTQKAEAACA

For `Cc1ccc(-c2c(/C=C(\C#N)C(=O)NC(C)C)n(CCCO)c3ncnc(N)c23)cc1`, the remaining binding was 67% (cell-free assay, competition with immobilised ligand; 1 µM).
With `NC(=O)C[C@H]1CCc2sc3ncnc(O[C@H]4CC[C@H](N5CCOCC5)CC4)c3c21` the inhibition was 0% (enzyme activity, inhibitor; 10 µM).
For `COc1c(OCCCN2CCOCC2)ccc2c1N=C(NC(=O)c1cnc(N)nc1)N1CCN=C21`, the remaining activity was 102% (kinase activity, inhibitor; 1 µM; baseline: untreated control).
The remaining binding of `CNC(=O)C1CCN(c2cc(C)c(F)cc2NC(=O)c2ccc(-c3cc(O)ccc3C)c(C)c2)CC1` is reported as 97% (binding, competition with immobilised ligand; 1 µM).
With `Cc1cccc(O[C@H]2CCC[C@@H](C(C)CNCc3ccncc3)C2)c1` (relative stereo) the inhibition was 0% (enzyme activity, inhibitor; 10 µM).
`CNS(=O)(=O)Nc1nccc(Cc2c(C)c3ccc(Oc4ncccc4F)cc3oc2=O)c1F` has a remaining binding of 100% (binding, competition with immobilised ligand; 10 µM).
For `CC(C)=CC1OC(C)(C)C2C=C3C(=O)C(Cl)=CC(O)C3C3C(O)C4OC4C(=O)C132` (stereo not shown), the remaining binding was 61% (cell-free assay, competition with immobilised ligand; 10 µM).
`CN1CCN(Cc2ccc(-c3ccc(CO[C@H]4CCC[C@@H]4NC(=O)c4cc(-c5cnn(C)c5)cnc4N)cc3)cc2)CC1` gave an inhibition of 14% (enzyme activity, inhibitor; 0.1 µM).
`COc1cc(Nc2nc(C)cc(-c3cnn4nc(OC)ccc34)n2)cc(C(F)(F)F)c1` gave a remaining binding of 95% (binding, competition with immobilised ligand; 1 µM).
With `CC(=O)N1c2ccc(-c3ccc(CNC(=O)c4cn5cc(-c6cnc(N)nc6)nc(N6CCOCC6)c5n4)cc3)cc2CC[C@@H]1C` the remaining binding was 57% (KINOMEscan; 10 µM).
For `CNC(=O)C[C@H](Cc1ccc(C#N)cc1)NC(=O)c1cc(-c2ccc(CN[C@H](C)c3ccc(C)cc3)o2)ccc1Cl`, “activity vs control” read 111% (enzyme activity, inhibitor; 1 µM).
`O=C=[N][Ru-4]123([n]4c5ccc(O)cc5c5c6c(c7cc(F)c[n+]1c7c54)C(=O)NC6=O)[S+]1CC[S+]2CC[S+]3CC1` (stereo not shown) has a remaining activity of 123% (enzyme activity; 100 nM, human enzyme, with: 10 µM ATP; baseline: untreated).
For `COc1ccc(NC(=O)Nc2ccc3c(c2)C(=O)N(C(C)CO)CC(C)C(CN(C)Cc2ccc4c(c2)OCO4)O3)cc1` (stereo not shown), the remaining activity was 102% (kinase activity, KinaseProfiler; 0.03 µM, species human; baseline: control).
With `C=CC(=O)Nc1cccc(-c2cnc3[nH]cc(C(=O)NC(C)(C)C)c3n2)c1` the inhibition was 32% and 24% (kinase activity; 0.1 µM).
For `CN1CC[C@@H](COc2cnc(C#N)cc2-c2ccn3nc(NC(=O)C4CC4)cc3c2)C1`, the inhibition was 7% (enzyme activity, inhibitor; 1 µM).
For `COCC12C(=O)NC3C4(C(OC)CC1O)C1CC5(O)C(OC)C(O)C(OC(C)=O)(C1C5OC(=O)c1ccccc1)C3(O)C(OC)C24` (stereo not shown), the remaining activity was 100% and 97% (kinase activity, inhibitor, ProQinase kinase profiling; 25 µM; baseline: control).
For `CN1CCN(Cc2ccc(NC(=O)c3cccc(C#Cc4cnc(N)c5ncccc45)c3)cc2C(F)(F)F)CC1`, the remaining binding was 61% (cell-free assay, competition with immobilised ligand; 0.5 µM).
For `Nc1ncc2c(n1)-c1c([nH]c3ccc(C4=CCOCC4)cc13)CCC2`, the remaining binding was 100% (binding, competition with immobilised ligand; 1 µM).
For `Cc1nc2c(F)cc(-c3nc(Nc4ccc(CNC(=O)CCCCCCC(=O)NO)cc4)ncc3F)cc2n1C(C)C`, the inhibition was 52% (enzyme activity, inhibitor; 1 µM).

For quick reference, copied from above:
For `COc1c(OCCCN2CCOCC2)ccc2c1N=C(NC(=O)c1cnc(N)nc1)N1CCN=C21`, the remaining activity was 102% (kinase activity, inhibitor; 1 µM; baseline: untreated control).
`CN1CCN(Cc2ccc(-c3ccc(CO[C@H]4CCC[C@@H]4NC(=O)c4cc(-c5cnn(C)c5)cnc4N)cc3)cc2)CC1` gave an inhibition of 14% (enzyme activity, inhibitor; 0.1 µM).
For `Nc1ncc2c(n1)-c1c([nH]c3ccc(C4=CCOCC4)cc13)CCC2`, the remaining binding was 100% (binding, competition with immobilised ligand; 1 µM).
